Measurements collected from several papers.
A part holds a random share of what one study measured.
Chain of UniProt Q92630 (whole entry, looked up): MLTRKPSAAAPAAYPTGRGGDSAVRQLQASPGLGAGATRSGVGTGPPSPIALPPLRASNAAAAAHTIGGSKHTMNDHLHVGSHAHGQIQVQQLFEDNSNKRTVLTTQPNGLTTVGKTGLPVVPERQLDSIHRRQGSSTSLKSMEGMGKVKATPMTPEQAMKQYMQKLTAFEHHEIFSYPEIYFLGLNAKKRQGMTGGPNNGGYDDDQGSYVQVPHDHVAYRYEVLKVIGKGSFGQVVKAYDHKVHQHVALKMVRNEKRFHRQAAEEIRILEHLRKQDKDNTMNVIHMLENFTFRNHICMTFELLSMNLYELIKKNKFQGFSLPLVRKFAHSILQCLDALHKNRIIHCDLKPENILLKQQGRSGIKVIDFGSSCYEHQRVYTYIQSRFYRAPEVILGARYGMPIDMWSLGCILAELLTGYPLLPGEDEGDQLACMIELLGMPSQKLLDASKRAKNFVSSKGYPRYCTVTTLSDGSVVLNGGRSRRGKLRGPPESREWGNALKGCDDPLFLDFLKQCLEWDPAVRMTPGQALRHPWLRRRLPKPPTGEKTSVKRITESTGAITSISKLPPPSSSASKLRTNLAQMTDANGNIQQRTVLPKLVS
Chain of UniProt O75385 (whole entry, looked up): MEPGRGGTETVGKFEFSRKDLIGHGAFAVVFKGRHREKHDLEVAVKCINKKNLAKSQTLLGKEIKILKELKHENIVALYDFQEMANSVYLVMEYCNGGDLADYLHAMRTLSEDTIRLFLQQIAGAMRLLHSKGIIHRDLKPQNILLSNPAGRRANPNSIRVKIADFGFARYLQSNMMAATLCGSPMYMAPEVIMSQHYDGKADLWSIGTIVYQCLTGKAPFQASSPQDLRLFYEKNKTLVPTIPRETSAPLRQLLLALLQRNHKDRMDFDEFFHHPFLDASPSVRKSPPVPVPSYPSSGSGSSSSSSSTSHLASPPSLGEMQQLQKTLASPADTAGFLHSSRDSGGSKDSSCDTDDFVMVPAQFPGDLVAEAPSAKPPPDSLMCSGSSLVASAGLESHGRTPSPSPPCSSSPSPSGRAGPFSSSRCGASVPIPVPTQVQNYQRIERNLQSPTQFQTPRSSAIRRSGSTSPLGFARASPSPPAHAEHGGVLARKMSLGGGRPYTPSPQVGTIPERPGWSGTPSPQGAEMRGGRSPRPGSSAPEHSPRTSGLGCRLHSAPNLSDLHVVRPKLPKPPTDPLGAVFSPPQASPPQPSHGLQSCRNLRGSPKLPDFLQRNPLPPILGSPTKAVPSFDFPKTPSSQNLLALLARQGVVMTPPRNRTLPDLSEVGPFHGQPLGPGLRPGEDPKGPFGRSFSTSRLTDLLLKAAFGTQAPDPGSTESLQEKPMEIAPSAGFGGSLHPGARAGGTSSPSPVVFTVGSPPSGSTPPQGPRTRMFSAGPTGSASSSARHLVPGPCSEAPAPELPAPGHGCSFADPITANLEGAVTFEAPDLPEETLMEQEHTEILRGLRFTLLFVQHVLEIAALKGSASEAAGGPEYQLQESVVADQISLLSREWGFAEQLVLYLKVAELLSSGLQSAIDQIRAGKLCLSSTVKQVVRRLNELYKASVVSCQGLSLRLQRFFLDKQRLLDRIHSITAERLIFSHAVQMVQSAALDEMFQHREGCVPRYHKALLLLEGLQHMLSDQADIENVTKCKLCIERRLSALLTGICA
Chain of UniProt Q8TDR2 (whole entry, looked up): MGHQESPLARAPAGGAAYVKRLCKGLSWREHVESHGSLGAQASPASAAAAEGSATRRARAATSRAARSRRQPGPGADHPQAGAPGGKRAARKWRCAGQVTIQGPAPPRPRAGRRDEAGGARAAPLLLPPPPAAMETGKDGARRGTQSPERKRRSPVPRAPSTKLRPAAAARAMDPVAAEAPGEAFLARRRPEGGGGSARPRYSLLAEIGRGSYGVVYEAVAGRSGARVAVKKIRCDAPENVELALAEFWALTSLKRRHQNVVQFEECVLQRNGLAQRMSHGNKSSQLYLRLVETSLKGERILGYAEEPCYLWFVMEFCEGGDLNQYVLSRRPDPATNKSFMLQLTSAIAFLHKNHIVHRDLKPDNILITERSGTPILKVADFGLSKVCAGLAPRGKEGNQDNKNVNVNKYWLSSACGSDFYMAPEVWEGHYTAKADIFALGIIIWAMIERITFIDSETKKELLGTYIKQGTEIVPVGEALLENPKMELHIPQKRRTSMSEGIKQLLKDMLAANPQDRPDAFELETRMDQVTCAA
Chain of UniProt P15735 (whole entry, looked up): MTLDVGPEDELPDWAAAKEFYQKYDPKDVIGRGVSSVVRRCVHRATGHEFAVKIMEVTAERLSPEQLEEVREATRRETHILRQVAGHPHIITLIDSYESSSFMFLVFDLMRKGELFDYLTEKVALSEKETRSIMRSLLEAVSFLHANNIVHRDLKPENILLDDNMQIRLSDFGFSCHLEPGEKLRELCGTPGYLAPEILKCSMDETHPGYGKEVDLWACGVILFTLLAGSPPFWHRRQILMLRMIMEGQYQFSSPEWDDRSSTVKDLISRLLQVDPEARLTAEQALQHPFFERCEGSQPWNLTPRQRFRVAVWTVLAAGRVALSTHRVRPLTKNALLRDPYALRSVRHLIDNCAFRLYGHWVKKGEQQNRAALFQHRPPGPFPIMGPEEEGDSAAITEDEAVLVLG
Chain of UniProt P15056 (whole entry, unmodified, looked up): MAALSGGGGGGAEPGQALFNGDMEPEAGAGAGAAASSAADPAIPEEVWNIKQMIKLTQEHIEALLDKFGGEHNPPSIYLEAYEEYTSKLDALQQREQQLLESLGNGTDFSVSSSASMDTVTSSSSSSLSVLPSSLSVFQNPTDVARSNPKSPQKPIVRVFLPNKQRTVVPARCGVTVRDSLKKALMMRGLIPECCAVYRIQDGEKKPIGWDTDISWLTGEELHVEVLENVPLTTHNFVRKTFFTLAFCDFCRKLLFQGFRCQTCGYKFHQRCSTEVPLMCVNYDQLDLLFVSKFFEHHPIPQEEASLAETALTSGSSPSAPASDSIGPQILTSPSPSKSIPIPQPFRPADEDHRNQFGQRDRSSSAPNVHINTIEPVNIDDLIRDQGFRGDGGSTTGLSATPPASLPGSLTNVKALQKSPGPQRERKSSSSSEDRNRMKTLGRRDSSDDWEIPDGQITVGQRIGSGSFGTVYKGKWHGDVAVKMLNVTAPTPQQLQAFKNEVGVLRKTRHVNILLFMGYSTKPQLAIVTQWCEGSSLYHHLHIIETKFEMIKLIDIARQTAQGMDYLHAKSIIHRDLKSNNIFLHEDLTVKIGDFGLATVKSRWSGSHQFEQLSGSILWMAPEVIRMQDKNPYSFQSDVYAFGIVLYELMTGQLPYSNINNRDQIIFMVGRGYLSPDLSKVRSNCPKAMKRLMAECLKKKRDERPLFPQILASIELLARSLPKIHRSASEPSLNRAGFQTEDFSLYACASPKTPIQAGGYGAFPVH
Chain of UniProt Q9UBF8 (whole entry, looked up): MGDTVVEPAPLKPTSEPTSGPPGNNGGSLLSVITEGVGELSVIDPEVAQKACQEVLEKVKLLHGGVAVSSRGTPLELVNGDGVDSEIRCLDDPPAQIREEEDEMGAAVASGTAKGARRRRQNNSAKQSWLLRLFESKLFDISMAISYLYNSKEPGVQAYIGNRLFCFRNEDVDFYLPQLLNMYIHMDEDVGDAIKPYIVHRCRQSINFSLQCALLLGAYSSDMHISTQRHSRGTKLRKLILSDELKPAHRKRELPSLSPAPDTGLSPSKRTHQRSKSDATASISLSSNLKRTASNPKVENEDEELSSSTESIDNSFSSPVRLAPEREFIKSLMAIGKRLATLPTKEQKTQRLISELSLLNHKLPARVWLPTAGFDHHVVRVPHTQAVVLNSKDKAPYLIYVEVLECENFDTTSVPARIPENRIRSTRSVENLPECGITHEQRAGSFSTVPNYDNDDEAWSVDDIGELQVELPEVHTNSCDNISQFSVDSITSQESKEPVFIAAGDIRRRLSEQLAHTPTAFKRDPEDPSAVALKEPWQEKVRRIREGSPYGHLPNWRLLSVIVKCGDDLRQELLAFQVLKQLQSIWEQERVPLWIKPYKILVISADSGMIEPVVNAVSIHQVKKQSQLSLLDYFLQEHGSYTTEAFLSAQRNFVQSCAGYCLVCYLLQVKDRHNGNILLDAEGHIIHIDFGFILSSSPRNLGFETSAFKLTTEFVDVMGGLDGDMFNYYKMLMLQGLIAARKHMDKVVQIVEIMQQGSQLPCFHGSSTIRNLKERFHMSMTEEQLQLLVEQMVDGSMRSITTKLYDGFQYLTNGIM
Chain of UniProt Q13705 (whole entry, looked up): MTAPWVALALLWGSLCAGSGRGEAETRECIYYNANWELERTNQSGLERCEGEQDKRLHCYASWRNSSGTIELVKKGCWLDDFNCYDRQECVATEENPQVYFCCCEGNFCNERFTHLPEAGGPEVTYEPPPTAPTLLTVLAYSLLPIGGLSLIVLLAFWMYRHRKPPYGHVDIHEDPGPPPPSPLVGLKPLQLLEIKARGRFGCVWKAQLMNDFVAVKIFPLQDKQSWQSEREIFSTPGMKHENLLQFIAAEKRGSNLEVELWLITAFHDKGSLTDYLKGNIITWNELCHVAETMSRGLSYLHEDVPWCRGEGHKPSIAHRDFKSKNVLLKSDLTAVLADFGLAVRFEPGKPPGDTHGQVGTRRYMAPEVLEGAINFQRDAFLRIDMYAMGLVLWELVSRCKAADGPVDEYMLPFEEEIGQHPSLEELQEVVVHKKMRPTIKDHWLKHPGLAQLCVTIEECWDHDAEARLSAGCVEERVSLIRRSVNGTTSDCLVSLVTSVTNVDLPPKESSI

Study 1
SMILES: Cc1nc(Nc2ncc(C(=O)Nc3c(C)cccc3Cl)s2)cc(N2CCN(CCO)CC2)n1
Read-out: enzyme activity
Action: inhibitor
Concentration: 0.5 µM
Relative to: control
Measurement: remaining activity
PRKD3 (Homo sapiens, UniProt O94806): 89.9%
MAP3K9 (Homo sapiens, UniProt P80192): 99.6%
TNK2 (Homo sapiens, UniProt Q07912): 2.62%
MAP4K5 (Homo sapiens, UniProt Q9Y4K4): 3.07%
PDGFRB (Homo sapiens, UniProt P09619): 2.48%
NTRK2 (Homo sapiens, UniProt Q16620): 96.4%
ULK1 (Homo sapiens, UniProt O75385): 85.5%
TAOK1 (Homo sapiens, UniProt Q7L7X3): 101%
HCK (Homo sapiens, UniProt P08631): 0.787%
VRK1 (Homo sapiens, UniProt Q99986): 97.7%
RAF1 (Homo sapiens, UniProt P04049): 39.7%
INSRR (Homo sapiens, UniProt P14616): 96.9%
ACVR1 (Homo sapiens, UniProt Q04771): 197%
PLK1 (Homo sapiens, UniProt P53350): 98.1%
FGFR2 (Homo sapiens, UniProt P21802): 73.7%
RIPK2 (Homo sapiens, UniProt O43353): 25.2%
SGK3 (Homo sapiens, UniProt Q96BR1): 102%
DYRK2 (Homo sapiens, UniProt Q92630): 113%
PHKG2 (Homo sapiens, UniProt P15735): 101%
DSTYK (Homo sapiens, UniProt Q6XUX3): 99.4%

Study 2
Cell line: A-375
Concentration: 100 µM
Time: 18 h
Measurement: viability
CC1(C)CCC(C)(C)c2cc(NC(=O)c3ccc(C(=O)O)cc3)ccc21: 62.7%
C[C@]12CC[C@@H]3c4ccc(O)cc4CC[C@H]3[C@@H]1CC[C@@H]2O: 79.4%
CC(C)(C)c1ccc(C(O)CCCN2CCC(C(O)(c3ccccc3)c3ccccc3)CC2)cc1 (centres unmarked): 8.25%
COc1nc2ccc(Br)cc2cc1[C@@H](c1ccccc1)[C@@](O)(CCN(C)C)c1cccc2ccccc12: 31.8%
COc1ccc(CN(CCN(C)C)c2ccccn2)cc1: 92.2%
CC1CCC(C(C)C)C(O)C1 (racemic): 81%
c1ccc([C@H]2CN3CCSC3=N2)cc1: 101%
c1ccc(-c2ccc(C(c3ccccc3)n3ccnc3)cc2)cc1 (centres unmarked): 8.23%
COc1ccc(-c2cc(=O)c3c(O)cc(O[C@@H]4O[C@H](CO[C@@H]5O[C@@H](C)[C@H](O)[C@@H](O)[C@H]5O)[C@@H](O)[C@H](O)[C@H]4O)cc3o2)cc1O: 85.6%
CCC(C)(C)C(=O)O[C@H]1C[C@@H](C)C=C2C=C[C@H](C)[C@H](CC[C@@H]3C[C@@H](O)CC(=O)O3)[C@H]21: 76.5%
CN1[C@@H]2CCC[C@H]1C[C@@H](NC(=O)c1nn(C)c3ccccc13)C2: 92%
CCCCCCOC(=O)NC(=N)c1ccc(NCc2nc3cc(C(=O)N(CCC(=O)OCC)c4ccccn4)ccc3n2C)cc1: 36.7%
Nc1ncn([C@@H]2O[C@H](CO)[C@@H](O)[C@H]2O)c(=O)n1: 47.8%
COc1cc(C(=O)NC2CCCNC2)cc(OC)c1OC (centres unmarked): 111%

Study 3
SMILES: CC(=O)c1c(NS(C)(=O)=O)c2cc(-c3ccc(Cl)cc3)c(-c3ccc(Cl)cc3Cl)nc2n(C)c1=O
Read-out: cell-free assay
Technique: competition with immobilised ligand
Concentration: 1 µM
Measurement: remaining binding
PIK3CA (Homo sapiens, UniProt P42336, H1047L): 96%
PIK3CB (Homo sapiens, UniProt P42338): 100%
BRAF (Homo sapiens, UniProt P15056, V600E): 88%
RET (Homo sapiens, UniProt P07949, V804M): 100%
GSK3A (Homo sapiens, UniProt P49840): 75%
SYK (Homo sapiens, UniProt P43405): 100%
ACVR2B (Homo sapiens, UniProt Q13705): 100%
CDK11B (Homo sapiens, UniProt P21127): 84%
STK35 (Homo sapiens, UniProt Q8TDR2): 100%
TYRO3 (Homo sapiens, UniProt Q06418): 64%
Ribosomal protein S6 kinase alpha-5, C-terminal kinase domain (RPS6KA5, Homo sapiens, UniProt O75582): 72%
ANKK1 (Homo sapiens, UniProt Q8NFD2): 70%
MAP4K1 (Homo sapiens, UniProt Q92918): 100%
PI4KB (Homo sapiens, UniProt Q9UBF8): 74%
EPHA2 (Homo sapiens, UniProt P29317): 100%
PTK6 (Homo sapiens, UniProt Q13882): 100%
EGFR (Homo sapiens, UniProt P00533, G719C): 100%

Study 4
Host: human
Medium: microsomes or S9
Concentration: 2 µM
Time: 0.5 h
Measurement: remaining compound
CCN(CC)C(=O)Cc1c(/C=C/c2ccccc2)[nH]c2ccccc12: 4.1%
CN(C)c1noc(C2CCCN(c3nccnc3C#N)C2)n1 (centres unmarked): 46.8%
CCCC(=O)c1cnc2c(OCC)nccc2c1N[C@H](C)c1ccccc1: 43.4%
CN(C(=O)NCC(=O)NC1C2CC3CC1CC(C(N)=O)(C3)C2)c1c(Cl)cc(Cl)cc1Cl (centres unmarked): 1.47%
COC(=O)C1(CCCN(C)CCc2ccc(OC)c(OC)c2)CCCc2c1ccc(OC)c2OC (centres unmarked): 12.2%
COc1ccc(CCN2CCC(NC(=O)c3cc4cc(Br)ccc4o3)CC2)cc1: 14.1%
CCOc1ccc(S(=O)(=O)Nc2cnc3ccccc3c2)cc1: 63.8%
CC1=NOC(C)(CNC(=O)c2cc(C)ccc2C)C1 (centres unmarked): 73.8%
CC1(C)CC(=O)C2=C(C1)c1c(ccc3ncccc13)NC2c1ccc(F)cc1 (centres unmarked): 16.9%
CC1=CC(=O)/C(=C(/C)Nc2cc(-c3ccccc3)n[nH]2)C(=O)O1: 94.6%
CN(/C=N/c1c(F)c(F)cc(F)c1F)/C=N/c1c(F)c(F)cc(F)c1F: 53.3%

A few entries again (study 1):
INSRR (Homo sapiens, UniProt P14616): 96.9%
ACVR1 (Homo sapiens, UniProt Q04771): 197%
PLK1 (Homo sapiens, UniProt P53350): 98.1%
FGFR2 (Homo sapiens, UniProt P21802): 73.7%
